Published values from different studies.
Each numbered part is a random draw from the data of one study; scales do not carry over between parts. “And” joins repeats or separate records; there may be more than shown.
Sequence of UniProt P15056 (whole entry, looked up): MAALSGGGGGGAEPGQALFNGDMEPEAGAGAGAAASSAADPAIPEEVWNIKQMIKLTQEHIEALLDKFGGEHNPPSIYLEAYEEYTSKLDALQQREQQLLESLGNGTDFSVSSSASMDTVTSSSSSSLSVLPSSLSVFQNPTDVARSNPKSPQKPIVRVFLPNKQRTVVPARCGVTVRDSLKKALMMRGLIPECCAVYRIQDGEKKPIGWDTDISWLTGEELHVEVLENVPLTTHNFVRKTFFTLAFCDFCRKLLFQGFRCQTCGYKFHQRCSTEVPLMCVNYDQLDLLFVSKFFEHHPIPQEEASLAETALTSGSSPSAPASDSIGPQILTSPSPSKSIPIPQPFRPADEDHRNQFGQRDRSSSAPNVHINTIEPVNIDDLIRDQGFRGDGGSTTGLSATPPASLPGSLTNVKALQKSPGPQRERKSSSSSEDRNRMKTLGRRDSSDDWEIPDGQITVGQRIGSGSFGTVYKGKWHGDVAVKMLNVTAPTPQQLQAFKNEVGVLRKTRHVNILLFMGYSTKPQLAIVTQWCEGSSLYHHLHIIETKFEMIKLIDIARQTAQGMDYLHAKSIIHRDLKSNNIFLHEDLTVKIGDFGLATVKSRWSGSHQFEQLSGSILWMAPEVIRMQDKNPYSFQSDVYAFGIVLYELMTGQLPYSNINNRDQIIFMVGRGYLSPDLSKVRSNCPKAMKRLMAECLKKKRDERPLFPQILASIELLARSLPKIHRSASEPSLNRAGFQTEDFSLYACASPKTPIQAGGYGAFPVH
Sequence of UniProt Q15208 (whole entry, looked up): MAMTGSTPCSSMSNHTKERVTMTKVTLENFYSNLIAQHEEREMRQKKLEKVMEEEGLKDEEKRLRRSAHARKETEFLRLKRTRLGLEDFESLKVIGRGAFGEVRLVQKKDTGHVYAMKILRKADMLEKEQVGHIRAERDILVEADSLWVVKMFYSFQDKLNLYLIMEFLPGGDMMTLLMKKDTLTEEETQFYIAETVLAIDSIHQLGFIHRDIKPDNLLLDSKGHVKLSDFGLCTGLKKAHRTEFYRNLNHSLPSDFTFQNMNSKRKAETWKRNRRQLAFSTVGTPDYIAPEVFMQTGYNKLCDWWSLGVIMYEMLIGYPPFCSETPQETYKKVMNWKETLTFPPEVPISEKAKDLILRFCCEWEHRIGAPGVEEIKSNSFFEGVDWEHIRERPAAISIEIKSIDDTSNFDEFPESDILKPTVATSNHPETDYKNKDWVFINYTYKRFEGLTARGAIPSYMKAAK
Sequence of UniProt Q9UQ07 (whole entry, looked up): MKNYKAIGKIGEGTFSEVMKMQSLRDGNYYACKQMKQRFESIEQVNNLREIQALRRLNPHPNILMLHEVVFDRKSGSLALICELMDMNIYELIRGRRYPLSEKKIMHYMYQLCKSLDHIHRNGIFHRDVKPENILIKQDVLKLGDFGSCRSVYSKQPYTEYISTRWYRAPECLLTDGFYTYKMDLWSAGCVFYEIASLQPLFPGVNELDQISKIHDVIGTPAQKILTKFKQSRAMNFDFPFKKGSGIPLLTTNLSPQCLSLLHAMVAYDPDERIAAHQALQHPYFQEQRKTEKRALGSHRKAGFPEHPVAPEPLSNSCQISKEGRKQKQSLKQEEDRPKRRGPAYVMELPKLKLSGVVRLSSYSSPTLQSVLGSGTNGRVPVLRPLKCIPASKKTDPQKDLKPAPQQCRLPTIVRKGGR
Sequence of UniProt Q9NRM7 (whole entry, looked up): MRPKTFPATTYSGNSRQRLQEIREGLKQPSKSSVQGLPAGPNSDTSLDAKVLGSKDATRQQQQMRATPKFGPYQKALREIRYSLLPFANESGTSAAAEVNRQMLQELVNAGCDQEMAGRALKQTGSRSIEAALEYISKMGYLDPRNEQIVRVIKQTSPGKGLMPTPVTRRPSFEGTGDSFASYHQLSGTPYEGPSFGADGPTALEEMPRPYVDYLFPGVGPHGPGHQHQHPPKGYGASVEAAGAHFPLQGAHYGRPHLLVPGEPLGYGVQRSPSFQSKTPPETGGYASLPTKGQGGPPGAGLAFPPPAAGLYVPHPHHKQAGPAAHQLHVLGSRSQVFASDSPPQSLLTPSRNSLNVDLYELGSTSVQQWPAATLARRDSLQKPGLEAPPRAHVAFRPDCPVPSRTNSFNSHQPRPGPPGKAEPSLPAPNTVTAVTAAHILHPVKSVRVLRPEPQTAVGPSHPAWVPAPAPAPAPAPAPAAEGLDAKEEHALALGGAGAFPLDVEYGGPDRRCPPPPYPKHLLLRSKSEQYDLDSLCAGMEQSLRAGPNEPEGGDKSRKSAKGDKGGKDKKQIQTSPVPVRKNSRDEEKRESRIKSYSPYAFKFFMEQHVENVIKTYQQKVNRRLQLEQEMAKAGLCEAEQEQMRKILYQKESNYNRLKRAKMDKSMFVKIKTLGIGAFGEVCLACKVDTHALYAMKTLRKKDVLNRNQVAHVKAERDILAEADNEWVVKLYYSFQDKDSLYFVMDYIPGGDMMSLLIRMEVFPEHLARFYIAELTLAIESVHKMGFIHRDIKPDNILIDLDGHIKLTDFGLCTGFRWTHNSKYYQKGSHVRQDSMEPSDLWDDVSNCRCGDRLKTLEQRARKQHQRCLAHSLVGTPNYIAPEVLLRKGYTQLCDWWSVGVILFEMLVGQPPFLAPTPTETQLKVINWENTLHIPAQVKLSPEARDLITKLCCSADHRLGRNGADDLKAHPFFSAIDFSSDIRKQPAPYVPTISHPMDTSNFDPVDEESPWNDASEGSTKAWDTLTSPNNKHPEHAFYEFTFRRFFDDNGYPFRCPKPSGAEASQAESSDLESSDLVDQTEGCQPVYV
Sequence of UniProt P32298 (whole entry, looked up): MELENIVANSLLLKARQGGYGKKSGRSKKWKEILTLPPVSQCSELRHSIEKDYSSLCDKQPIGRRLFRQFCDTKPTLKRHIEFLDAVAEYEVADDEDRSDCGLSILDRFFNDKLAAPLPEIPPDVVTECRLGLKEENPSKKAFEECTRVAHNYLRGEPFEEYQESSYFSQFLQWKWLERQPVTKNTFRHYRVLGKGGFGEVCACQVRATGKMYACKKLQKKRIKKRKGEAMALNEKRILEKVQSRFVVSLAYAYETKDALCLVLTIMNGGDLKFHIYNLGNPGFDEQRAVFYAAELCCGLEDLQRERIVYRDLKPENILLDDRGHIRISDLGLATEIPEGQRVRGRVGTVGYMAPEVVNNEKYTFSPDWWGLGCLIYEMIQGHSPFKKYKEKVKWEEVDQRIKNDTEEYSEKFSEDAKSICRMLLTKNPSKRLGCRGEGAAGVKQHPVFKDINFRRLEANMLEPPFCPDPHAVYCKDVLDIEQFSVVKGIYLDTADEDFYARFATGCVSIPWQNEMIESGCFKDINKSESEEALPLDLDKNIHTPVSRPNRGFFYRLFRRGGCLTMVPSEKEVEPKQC

Study 1
Target: Receptor tyrosine-protein kinase erbB-4 (ERBB4, Homo sapiens, UniProt Q15303)
Sequence of UniProt Q15303 (whole entry, looked up): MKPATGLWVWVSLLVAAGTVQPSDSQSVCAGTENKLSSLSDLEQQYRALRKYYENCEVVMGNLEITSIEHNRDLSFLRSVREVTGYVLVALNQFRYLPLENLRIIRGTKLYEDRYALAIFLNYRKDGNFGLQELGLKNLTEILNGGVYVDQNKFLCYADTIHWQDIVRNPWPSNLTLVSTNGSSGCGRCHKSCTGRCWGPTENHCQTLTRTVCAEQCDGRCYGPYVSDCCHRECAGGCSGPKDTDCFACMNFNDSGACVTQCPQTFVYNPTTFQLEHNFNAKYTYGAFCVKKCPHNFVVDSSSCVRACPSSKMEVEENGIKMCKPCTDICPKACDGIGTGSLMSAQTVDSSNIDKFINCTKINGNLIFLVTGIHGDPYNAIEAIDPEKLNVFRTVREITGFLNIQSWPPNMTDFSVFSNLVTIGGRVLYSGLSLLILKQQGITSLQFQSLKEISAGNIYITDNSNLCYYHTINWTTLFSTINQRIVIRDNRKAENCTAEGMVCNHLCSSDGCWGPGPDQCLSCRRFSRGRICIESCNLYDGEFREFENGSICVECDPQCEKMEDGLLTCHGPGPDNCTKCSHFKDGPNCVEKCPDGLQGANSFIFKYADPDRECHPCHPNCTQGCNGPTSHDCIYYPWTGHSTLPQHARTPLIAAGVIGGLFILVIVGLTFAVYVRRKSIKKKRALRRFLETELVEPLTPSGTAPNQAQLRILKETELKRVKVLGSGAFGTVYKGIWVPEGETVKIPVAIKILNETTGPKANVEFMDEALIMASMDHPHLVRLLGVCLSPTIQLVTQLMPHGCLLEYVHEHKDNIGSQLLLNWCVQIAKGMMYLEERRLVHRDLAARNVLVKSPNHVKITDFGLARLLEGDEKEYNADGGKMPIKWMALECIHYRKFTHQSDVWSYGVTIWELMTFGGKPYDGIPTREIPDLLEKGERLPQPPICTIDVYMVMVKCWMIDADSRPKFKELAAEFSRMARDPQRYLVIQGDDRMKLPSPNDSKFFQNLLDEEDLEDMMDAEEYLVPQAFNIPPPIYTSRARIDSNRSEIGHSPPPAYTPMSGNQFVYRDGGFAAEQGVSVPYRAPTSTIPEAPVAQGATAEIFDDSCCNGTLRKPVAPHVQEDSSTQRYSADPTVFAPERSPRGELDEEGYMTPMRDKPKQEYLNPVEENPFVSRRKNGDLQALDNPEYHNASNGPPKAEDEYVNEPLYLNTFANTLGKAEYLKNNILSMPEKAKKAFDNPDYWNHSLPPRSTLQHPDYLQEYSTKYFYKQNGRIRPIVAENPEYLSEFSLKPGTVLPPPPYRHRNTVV
Effect on: enzyme activity
Action: inhibitor
Concentration: 0.5 µM
Relative to: control
`N#CC(C#N)=C(N)/C(C#N)=C/c1ccc(O)cc1` has a remaining activity of 92.7%.
`Cc1nc(-c2ccccc2)c(-c2ccncc2)o1` gave a remaining activity of 92.2%.
With `COc1cc2ncnc(Nc3ccc(Oc4ccccc4)cc3)c2cc1OC` the remaining activity was 8.79%.
`NCCNc1ncc(C(N)=O)c(Nc2cccc(C(F)(F)F)c2)n1` has a remaining activity of 88.5%.
With `CN(C)c1ccc(C=C2C(=O)Nc3ccccc32)cc1` the remaining activity was 97.7%.
The remaining activity of `CO[C@H]1C[C@@H]2CC[C@@H](C)[C@@](O)(O2)C(=O)C(=O)N2CCCC[C@H]2C(=O)O[C@H]([C@H](C)C[C@@H]2CC[C@@H](O)[C@H](OC)C2)CC(=O)[C@H](C)/C=C(\C)[C@@H](O)[C@@H](OC)C(=O)[C@H](C)C[C@H](C)/C=C/C=C/C=C/1C` is reported as 88.7%.
`O=C1NC(=O)C(c2cn(CCCn3ccnc3)c3ccccc23)=C1Nc1ccccc1` gave a remaining activity of 59.6%.
`Cn1sc(=O)n(Cc2ccccc2)c1=O` has a remaining activity of 104%.
The remaining activity of `COc1ccc(OC)c2c(=S)c3ccccc3[nH]c12` is reported as 104%.
`O=c1c2ccccc2[nH]c(=S)n1CCN1CCC(=C(c2ccc(F)cc2)c2ccc(F)cc2)CC1` has a remaining activity of 87.4%.
For `COc1cc2nccc(Oc3ccc(NC(=S)NC(=O)c4ccccc4C)cc3)c2cc1OC`, the remaining activity was 114%.
For `Nc1ccc2ncnc(NCCc3ccc(Oc4ccccc4)cc3)c2c1`, the remaining activity was 70.2%.
With `Cc1cccc(-c2[nH]c(C(C)(C)C)nc2-c2ccc3c(c2)OCO3)n1` the remaining activity was 83.1%.
`COc1ccc(C(=O)Nc2sc3c(c2C(N)=O)CCCC3)cc1OC` has a remaining activity of 97.2%.
With `CNC(=O)c1cc(Oc2ccc(NC(=O)Nc3ccc(Cl)c(C(F)(F)F)c3)cc2)ccn1` the remaining activity was 94.8%.

Study 2
Structure (SMILES): CC(C)S(=O)(=O)c1ccc2nccc(Nc3ccc4sc(C5CCCC5)nc4c3)c2c1.Cl
Concentration: 1 µM
It gave 107% and 97% for remaining activity (PKCβII(h) (human)).
The remaining activity was 107% (GRK4 (Homo sapiens, UniProt P32298); kinase activity, inhibitor).
PIP5K1C (Homo sapiens, UniProt O60331); kinase activity, inhibitor — remaining activity: 97%.
For BRAF (Homo sapiens, UniProt P15056); kinase activity, inhibitor: remaining activity read 86%.
MOK (Homo sapiens, UniProt Q9UQ07); kinase activity, inhibitor — remaining activity: 108%.
It gave 118% for remaining activity (STK38 (Homo sapiens, UniProt Q15208); kinase activity, inhibitor).
It gave 109% for remaining activity (LATS2 (Homo sapiens, UniProt Q9NRM7); kinase activity, inhibitor).

Study 3
Target: 5-hydroxytryptamine receptor 1D (HTR1D, Homo sapiens, UniProt P28221)
Sequence of UniProt P28221 (whole entry, looked up): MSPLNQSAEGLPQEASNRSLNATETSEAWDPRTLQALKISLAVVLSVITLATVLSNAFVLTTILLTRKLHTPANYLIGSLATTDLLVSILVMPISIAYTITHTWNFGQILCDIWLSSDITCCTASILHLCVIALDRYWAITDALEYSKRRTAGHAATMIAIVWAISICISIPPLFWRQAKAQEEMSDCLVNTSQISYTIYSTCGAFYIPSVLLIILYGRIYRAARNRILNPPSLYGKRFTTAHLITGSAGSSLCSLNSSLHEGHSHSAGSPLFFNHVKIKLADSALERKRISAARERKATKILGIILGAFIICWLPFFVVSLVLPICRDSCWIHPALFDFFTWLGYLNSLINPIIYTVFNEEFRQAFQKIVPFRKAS
Effect on: cell-free assay
Concentration: 10 µM
The inhibition of `O=C(Nc1ccc(Oc2ccc(F)cc2)cc1)N1CCc2ncccc2[C@H]1c1ccc(F)cc1` is reported as 43.3%.
`O=C(NNS(=O)(=O)c1ccccc1F)c1cc(F)cc(-c2ccccn2)c1` has an inhibition of -0.66%.
For `Cc1ncc(-c2cc(Cl)ccc2F)cc1-n1c(=O)n(CC(N)=O)c2ccccc21`, the inhibition was -22.6%.
With `CCC(F)(F)c1cc(N2CCC(S(C)(=O)=O)CC2)nc2sc(C(N)=O)c(N)c12` the inhibition was 26.9%.
The inhibition of `COc1cccc(NC(=O)c2nc3scc(CN(C)Cc4ccccc4)c3c(=O)[nH]2)c1` is reported as -0.959%.
`NC(=O)c1ccc2nc(-c3ccc(C4(N)CCC4)cc3)c(-c3ccccc3)n2n1` has an inhibition of 12.2%.
`COCc1nc2cnc3cc(-c4c(C)noc4C)c(OC[C@H]4CCNC4)cc3c2n1[C@H](C)c1ccccc1` has an inhibition of 14.8%.
For `N#CC1(c2ccccn2)CCN(Cc2cc(C(=O)N3CCCC3)c(=O)n3ccccc23)CC1`, the inhibition was 14.6%.
`Cc1cc(C)c(-n2ccn3nc(-c4cccnc4)cc23)cc1NC(=O)c1cc(C#N)cc(S(F)(F)(F)(F)F)c1` gave an inhibition of 9.27%.
`CN1CCN(C(=O)C(C)(C)c2ccc(C(=O)Nc3cn4cc(-c5cc(C(C)(C)C)cc(C(C)(C)C)c5)ccc4n3)cc2)CC1` gave an inhibition of 50.5%.

Study 4
Cell line: A-375
Concentration: 100 µM
Time: 18 h
`CC1(C)[C@@H](O[C@H]2O[C@H](C(=O)O)[C@@H](O)[C@H](O)[C@H]2O[C@@H]2O[C@H](C(=O)O)[C@@H](O)[C@H](O)[C@H]2O)CC[C@]2(C)[C@H]3C(=O)C=C4[C@@H]5C[C@@](C)(C(=O)O)CC[C@]5(C)CC[C@@]4(C)[C@]3(C)CC[C@@H]12` gave a viability of 95% and 104%.
With `CO[C@H]1/C=C/O[C@@]2(C)Oc3c(C)c(O)c4c(c3C2=O)C2=NC3(CCN(CC(C)C)CC3)NC2=C(NC(=O)/C(C)=C\C=C\[C@H](C)[C@H](O)[C@@H](C)[C@@H](O)[C@@H](C)[C@H](OC(C)=O)[C@@H]1C)C4=O` the viability was 51.5%.
With `Cc1c(-c2ccc(O)cc2)n(Cc2ccc(OCCN3CCCCCC3)cc2)c2ccc(O)cc12` the viability was 9.94%.
`COc1c2occc2c(OC)c2c(=O)cc(C)oc12` gave a viability of 95.8%.
For `CC(CN(C)C)CN1c2ccccc2Sc2ccccc21` (centres unmarked), the viability was 8.64%.
`Cc1ccc(N(CC2=NCCN2)c2cccc(O)c2)cc1` has a viability of 65.4%.

A few entries again (study 1):
`Cc1nc(-c2ccccc2)c(-c2ccncc2)o1` gave a remaining activity of 92.2%.
With `COc1cc2ncnc(Nc3ccc(Oc4ccccc4)cc3)c2cc1OC` the remaining activity was 8.79%.
`NCCNc1ncc(C(N)=O)c(Nc2cccc(C(F)(F)F)c2)n1` has a remaining activity of 88.5%.
With `CN(C)c1ccc(C=C2C(=O)Nc3ccccc32)cc1` the remaining activity was 97.7%.
